# Published values pooled from the literature.
# Parts stem from different laboratories: compare values within a part only. Substitutions count along the parent as printed.

# Study 1 — technique: RNA Bind-n-Seq; molecule type: RNA; sample: in vitro; concentration: 1 µM; notes: whole 134-nt RNA, ends assumed; together with: 150 mM KCl; reference: input library; direction: higher = stronger binding
# Target: Ras GTPase-activating protein-binding protein 1, C-terminal RGG region (G3BP1, Homo sapiens, UniProt Q13283)
# Sequence of UniProt Q13283 (whole entry, looked up): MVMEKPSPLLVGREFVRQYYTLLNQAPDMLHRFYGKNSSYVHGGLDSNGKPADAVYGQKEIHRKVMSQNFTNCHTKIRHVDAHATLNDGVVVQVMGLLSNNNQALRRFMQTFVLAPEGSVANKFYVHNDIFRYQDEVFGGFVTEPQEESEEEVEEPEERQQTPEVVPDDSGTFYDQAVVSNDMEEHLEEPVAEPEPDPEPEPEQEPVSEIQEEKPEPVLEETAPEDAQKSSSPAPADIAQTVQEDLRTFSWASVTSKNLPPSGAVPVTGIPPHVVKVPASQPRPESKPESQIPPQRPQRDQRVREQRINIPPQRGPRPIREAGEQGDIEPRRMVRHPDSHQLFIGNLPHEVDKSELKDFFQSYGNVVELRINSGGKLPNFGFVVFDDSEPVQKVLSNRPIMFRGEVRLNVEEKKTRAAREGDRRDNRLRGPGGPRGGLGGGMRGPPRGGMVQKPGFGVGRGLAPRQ
# Shared flanks, not repeated: GGGAGUUCUACAGUCCGACGAUC … UGGAAUUCUCGGGUGUCAAGG
Sequence,log2 enrichment
UCCUGUGCUACACAUCGUAUGUACCGAAUCGGGAAAAAAGGAAAAAAGGGAAAAAAGGGAAAGUAUUAUGUUACGCCGUUCGGAUCUGCA,-1.08
UCCUCAAGUCCUGUGCUACACAUCGUAUGUACCGAAUCGGUGGUGGGGUGGAAAGUAUUAUGUUACGCCGUUCGGAUCUGCACUUCCAGC,-0.692
AGUCCUGUGCUACACAUCGUAUGUACCGAAUCGGGAAAAGGGAAAAGGGAAAAGGGGAAAGUAUUAUGUUACGCCGUUCGGAUCUGCACU,1.27
UUACACCAAUGAGAAGCUGCAGCAGCUCUUCAACCACACCAUGUUCAUCCUGGAGCAGGAGGAGUACCAGCGCGAGGGCAUCGAGUGGAA,-1.05
GUCCUGUGCUACACAUCGUAUGUACCGAAUCAAACCCAAACCCCCCCAAACCCCCAAAAAAGUAUUAUGUUACGCCGUUCGGAUCUGCAC,-1.02
ACCAUGCAGGUGGGCAUCUUUGGGAAGUGGGGCAAGGGGGGGAUAGGGAAGGGGGUAACACUUUGGGAACAGGUGGUCCCAGGUCGUUUC,2.39
GUCCUGUGCUACACAUCGUAUGUACCGAAUCGGGUUUGGGAAAAAAAGGGUUUUUGGGAAAGUAUUAUGUUACGCCGUUCGGAUCUGCAC,0.243
UAACUUUAGAGGAGGAUCUGAUGGAUAUGGCAGUGGACGUGGAAUUGGGGAUGGCUAUAAUGGGUAUGGAGGAGGACCUGGAGGUGGCAA,-1.24
CCUGUGCUACACAUCGUAUGUACCGAAUCGGGAAAAAGGGUUUUUUUGGGUUUUUUUGGGAAAGUAUUAUGUUACGCCGUUCGGAUCUGC,-1.94
CCUGUGCUACACAUCGUAUGUACCGAAUCGGGUUUUUUUGGGUUUUUUUGGGUUUUUGGGAAAGUAUUAUGUUACGCCGUUCGGAUCUGC,-1.36
UGGCCCUGGUGGCAUGCGGGGAGGAAGAGUUGGCCUCAUGGAUCGUGGUGGUCCCGGUGGAAUGUUCAGAGGUGGCCGUGGUGGAGACAG,2.03
CUGUGCUACACAUCGUAUGUACCGAAUCAAACCCCCCCAAAUUUUUUUAAACCCCCCCAAAAAAGUAUUAUGUUACGCCGUUCGGAUCUG,0.975
AGGAAAAUGUUUAUAGGAGGCCUUAGCUGGGACACUACAAAGAAAGAUCUGAAGGACUACUUUUCCAAAUUUGGUGAAGUUGUAGACUGC,-0.851
GCAGGAAGUAAAAACAAAUGGAAAUGCUUCGGAUAGUGGCAGGGGUGGGGGUUGCUAAGGAAAGGGUGGGAUGGGAGUGGGUAACGAGUU,0.673

# Study 2 — technique: RNA Bind-n-Seq; molecule type: RNA; sample: in vitro; concentration: 365 nM; reference: no-protein control; direction: higher = stronger binding
# Target: RNA binding protein fox-1 homolog 2, RRM domain, GST-SBP tag (RBFOX2, Homo sapiens, UniProt O43251-10, residues 100-194)
# Notes: natural RNA segment, single round, ends assumed
# Shared flanks, not repeated: GGGAGUUCUACAGUCCGACGAUC … UGGAAUUCUCGGGUGCCAA
# Target sequence (chain): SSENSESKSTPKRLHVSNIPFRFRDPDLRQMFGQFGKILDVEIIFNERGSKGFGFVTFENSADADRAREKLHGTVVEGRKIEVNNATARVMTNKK
Sequence,RBNS enrichment (R)
CUCUGGCUCAGGUUGCUCAAAGCACAGAUCCUCUCUUACCCCGUCCCCAGGUUUGAAACACAUAGCCUCAUUUCAAGGUGUAGCCAGGUUCCCCCGACUUUCCUCUGGGA,0.418
UAAGGCUAGAGUAUUUUAUAUAAAUAGAAGAGCUUAGGUCCUGAAGACCAAGGCAGAUAGAUGCAGCUAUGUGUACAUUGUAUAUUUUUGUGAACUUCUCAAGCACGCAC,0.553
GACCCAGCUUGUCUCUCCUUGUUUCUUCCCACUGCACUGUGGUGCUUCAGUGGCCACCAGCCUCGUCACAUACACCAGCAUCUUUCUGUACCUCCUCCCUUUGGUGACCU,0.895
GCCAAAGGACAAGCCAUUGAUCCCAAAGCCUCGUAUGCCCACCAGGGCCCCUGGUGCCACUGCGUAGUGUUCACUAACACCCCGCCUCACCAGGCAGGAGCCCCGACCCC,0.235
UCUCCCUGGCUGCCUCAGGCUUCUCUUACGAAGAGGAAACGCAAAAAAAGAAAAGGAAAAACCCCGUGCUCGCCCCCUUCCUCCUGCCGUCCACUGCGCGGCCUCGUCAG,0.691
CUCCCCCUUCUGCAUAGAGGAAAUCCCAGUGUGUGACAGCCCUUAAGGUUCCUGUGGACUUUGUGUACCAAGGUGUCCAGUGCCACCAACACUGACCUGGGGCCUUUACA,0.27
GUCCAGAGACAGGUCUCAUGUGACACUGGACAACCCUGCCAUCACUAGCAUGUGAACCUGGUCCUAGUUGGAAACUCACCCAGCCUACCUUAGUACUAGUGUUUCCUACU,0.593
CCCCACCAAAGGGAAGCAGAGAAGCCCCUGGCCAUGCACAUUGAGUAUGAUGAGCAAAAGGCCAGAACUCCAGUGUCCUGUGAGAUUGGCUGACCCGAGCGAGGUAUUAU,0.482
UUUGUACGAGUAAGGGUUUGAUCUACAAAAGAGCUCACAUGGACGCACUGAGAACGCCUGCCAGCUUCCCCAUGCCCUCACUUGGUUUGUGUUUUAGGUUAAGUAGUCAA,1.63
CAGCUCUUAGAAAUUUCUCUUCUUCUACACUUGUUGCUCUCACCAGUGAAACGCUUUGUAAGGAGGCAUCUGGGUAAUUAUGCAAAUAAGUUUGUGAUAAUUGCUCCAGU,0.273
UGAAUGUGUAUAGGUCAGAGGUCUUCGUGUUCACAUUUUAAAAUUAGGUAAAUGACCUCAUCUUUCAAGCUUGAAUUCAUUUUUAAUUUUAAUUUUAUUUUAUACAAUGU,2.92
CUUUUUGAACUUCCCUUCUAUUAAACUUAAAACAGAUGUCUUAAUUAAUCAGGCUGUCUUGGAAGGGUAUUGUAUUGGGAGACAAGGGGCGGUGGUGGACCUCACCUUCA,0.607

# Study 3 — target: CEBPB, bZIP domain (human); technique: DHFR protein complementation; sample: yeast; reference: wild-type JUN-FOS pair; direction: higher = stronger binding
# Notes: single substitutions, most at no-binding floor
# Parent: JUN, bZIP domain (human); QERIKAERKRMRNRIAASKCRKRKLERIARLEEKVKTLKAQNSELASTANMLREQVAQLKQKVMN; partner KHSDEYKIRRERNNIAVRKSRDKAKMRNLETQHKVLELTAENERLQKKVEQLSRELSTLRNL
Variant,binding fitness [natural log]
K36M,-1.4
R53P,-1.44
E44T,-1.28
E33A,-1.35
E44S,-1.25
M51E,-1.3
L45W,-1.51
R30P,-1.36
A40M,-1.36
T37A,-1.27
K36T,-1.44
S43T,-1.2
A46V,-1.2
A29V,-1.32
A46E,-1.08
A29R,-1.24
R30H,-1.36
A49S,-1.5
L38C,-1.48
S43Y,-1.33
S47A,-1.14
L31R,-1.39
A46N,-1.25
M51K,-1.17
L31M,-1.15

# Study 4 — target: UBE2G2 UBC core domain (UniProt P60604); technique: yeast two-hybrid; sample: yeast; notes: mostly zero background; reference: not given; direction: higher = stronger interaction
# B1: TRIM32 RING domain (UniProt Q13049); chain NLDALREVLECPICMESFTEEQLRPKLLHCGHTICRQCLEKLLASSINGVRCPFCSKITRITSLTQ
# B2: RNF130 RING domain (UniProt Q86XS8); chain DKETDPDFDHCAVCIESYKQNDVVRILPCKHVFHKSCVDPWLSEHCTCPMCKLNILKALGIV
# B3: RNF115 RING domain (UniProt Q9Y4L5); chain TQEQVDMGLECPVCKEDYTVEEEVRQLPCNHFFHSSCIVPWLELHDTCPVCRKSLNGEDSTR
# B4: TRIM28 RING domain (UniProt Q13263); chain GAEALELLEHCGVCRERLRPEREPRLLPCLHSACSACLGPAAPAAANSSGDGGAAGDGTVVDCPVCKQQCFSKDIVE
# B5: TRIM2 RING domain (UniProt Q9C040); chain VRQIDKQFLICSICLERYKNPKVLPCLHTFCERCLQNYIPAHSLTLSCPVCRQTSILPEKGV
# B6: TRIM74 RING domain (UniProt Q86UV6); chain SLLELEDWLQCPICLEVFKESLMLQCGHSYCKGCLVSLSYHLDTKVRCPMCWQVVDGSSSLP
# B7: RNF11 RING domain (UniProt Q9Y3C5); chain RDGSEKKIRECVICMMDFVYGDPIRFLPCMHIYHLDCIDDWLMRSFTCPSCMEPVDAALLSS
# B8: PJA2 RING domain (UniProt O43164); chain DHTAIGQEQCCPICCSEYIKDDIATELPCHHFFHKPCVSIWLQKSGTCPVCRRHFPPAVIEA
# B9: ARIH1 RING domain (UniProt Q9Y4X5); chain NTRSSAQDMPCQICYLNYPNSYFTGLECGHKFCMQCWSEYLTTKIMEEGMGQTISCPAHGCDILVDDNTVM
# B10: CBLL1 RING domain (UniProt Q75N03); chain GEKDDTPVHFCDKCGLPIKIYGRMIPCKHVFCYDCAILHEKKGDKMCPGCSDPVQRIEQCT
# B11: RMND5B RING domain (UniProt Q96G75); chain MKCWYHSVFACPILRQQTSDSNPPIKLICGHVISRDALNKLINGGKLKCPYCPMEQNPADGK
# B12: TRIM34 RING domain (UniProt Q9BYJ4); chain ILLNVQEEVTCPICLELLTEPLSLDCGHSLCRACITVSNKEAVTSMGGKSSCPVCGISYSFEHLQA
# Residues (chain): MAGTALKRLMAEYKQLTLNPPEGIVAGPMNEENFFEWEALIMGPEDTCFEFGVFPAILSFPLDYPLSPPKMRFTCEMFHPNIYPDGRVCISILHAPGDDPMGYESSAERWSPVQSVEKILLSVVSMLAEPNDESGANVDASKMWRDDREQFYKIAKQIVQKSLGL
Molecule,lacZ reporter activity
EDVLSKDAGECAICLEELQQGDTIARLPCLCIYHKGCIDEWFEVNRSCPEHPSD (ZNRF2 RING domain (UniProt Q8NHG8)),0
B1 (TRIM32 RING domain),0
B2 (RNF130 RING domain),0
B3 (RNF115 RING domain),0
FLSKVEETFQCICCQELVFRPITTVCQHNVCKDCLDRSFRAQVFSCPACRYDLGRSYAMQ (UHRF1 RING domain (UniProt Q96T88)),0
B4 (TRIM28 RING domain),0
B5 (TRIM2 RING domain),0
B6 (TRIM74 RING domain),13100
SNNDLASLFECPVCFDYVLPPILQCQSGHLVCSNCRPKLTCCPTCRGPLGSIRNLA (SIAH1 RING domain (UniProt Q8IUQ4)),0
B7 (RNF11 RING domain),0
B8 (PJA2 RING domain),2140
B9 (ARIH1 RING domain),0
VPADASPDSKCPICLDRFDNVSYLDRCLHKFCFRCVQEWSKNKAECPLCKQPFDSIFHSV (TOPORS RING domain (UniProt Q9NS56)),2340
B10 (CBLL1 RING domain),0
B11 (RMND5B RING domain),0
B12 (TRIM34 RING domain),0

# Excerpt of the above (study 2):
Sequence,RBNS enrichment (R)
UAAGGCUAGAGUAUUUUAUAUAAAUAGAAGAGCUUAGGUCCUGAAGACCAAGGCAGAUAGAUGCAGCUAUGUGUACAUUGUAUAUUUUUGUGAACUUCUCAAGCACGCAC,0.553
GACCCAGCUUGUCUCUCCUUGUUUCUUCCCACUGCACUGUGGUGCUUCAGUGGCCACCAGCCUCGUCACAUACACCAGCAUCUUUCUGUACCUCCUCCCUUUGGUGACCU,0.895
GCCAAAGGACAAGCCAUUGAUCCCAAAGCCUCGUAUGCCCACCAGGGCCCCUGGUGCCACUGCGUAGUGUUCACUAACACCCCGCCUCACCAGGCAGGAGCCCCGACCCC,0.235
